Results pooled from the literature.
Protocols differ between the studies behind these lines. ± gives the spread as reported.
UniProt P08684, sequence (whole entry, looked up): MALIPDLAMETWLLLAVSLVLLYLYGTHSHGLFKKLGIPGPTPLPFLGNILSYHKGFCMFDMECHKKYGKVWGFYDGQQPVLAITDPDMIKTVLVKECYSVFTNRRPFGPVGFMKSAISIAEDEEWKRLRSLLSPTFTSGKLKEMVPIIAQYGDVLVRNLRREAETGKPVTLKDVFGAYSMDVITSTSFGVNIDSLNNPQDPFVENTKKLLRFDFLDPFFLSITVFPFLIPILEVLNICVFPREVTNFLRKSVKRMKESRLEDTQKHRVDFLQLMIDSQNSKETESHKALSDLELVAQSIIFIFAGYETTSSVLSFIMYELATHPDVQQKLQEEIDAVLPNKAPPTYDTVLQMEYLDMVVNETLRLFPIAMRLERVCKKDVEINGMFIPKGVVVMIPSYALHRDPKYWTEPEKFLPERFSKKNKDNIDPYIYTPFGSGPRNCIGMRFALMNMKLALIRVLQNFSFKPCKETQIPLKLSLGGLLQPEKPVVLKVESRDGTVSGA

CC(C)C[C@H](NC(=O)CN1CCN(CC(=O)O)CCN(CC(=O)O)CC1)C(=O)N[C@@H](CC(C)C)C(=O)N[C@@H](CC(C)C)C(=O)N[C@@H](CC(C)C)C(=O)N[C@@H](CCCNC(=N)N)C(=O)N[C@H](C(=O)N[C@@H](CCCCN)C(=O)N[C@@H](CCCNC(=N)N)C(N)=O)C(C)C [copper-64 labelled]
tissue uptake (CD1 mouse, male, lungs; intravenous, 15 min): 3.7 ± 0.5 %ID/g

[64Cu+2].c1cnc(CNCc2ccc(CN3CCCN4CCNCCCN(CC4)CC3)cc2)nc1
tissue uptake (CXCR4 (human); NOD/SCID mice, U87 xenografts, small intestine; 30 min post-injection): 8.45 ± 5.25 %ID/g

CSCC[C@H](NC(=O)[C@H](CC(C)C)NC(=O)[C@H](Cc1c[nH]cn1)NC(=O)CNC(=O)[C@@H](NC(=O)[C@H](C)NC(=O)[C@H](Cc1c[nH]c2ccccc12)NC(=O)[C@H](CCC(N)=O)NC(=O)CCOCCOCCOCCOCCNC(=O)CN1CCN(CC(=O)O)CCN(CC(=O)O)CCN(CC(=O)O)CC1)C(C)C)C(N)=O [indium-111 labelled]
tissue uptake (Swiss nu/nu mouse, male, PC-3 tumour xenograft, tumour; intravenous, 10 pmol, 24 h): 1.2 ± 0.2 %ID/g

N=C(N)NCCC[C@@H]1NC(=O)[C@H](CCCCNC(=O)CC[C@H](NC(=O)CC[C@H](NC(=O)CN2CCN(CC(=O)O)CCN(CC(=O)O)CCN(CC(=O)O)CC2)C(=O)N[C@@H](CCC(=O)NCCCC[C@@H]2NC(=O)[C@@H](Cc3ccccc3)NC(=O)[C@H](CC(=O)O)NC(=O)CNC(=O)[C@H](CCCNC(=N)N)NC2=O)C(=O)NCCCC[C@@H]2NC(=O)[C@@H](Cc3ccccc3)NC(=O)[C@H](CC(=O)O)NC(=O)CNC(=O)[C@H](CCCNC(=N)N)NC2=O)C(=O)NCCCC[C@@H]2NC(=O)[C@@H](Cc3ccccc3)NC(=O)[C@H](CC(=O)O)NC(=O)CNC(=O)[C@H](CCCNC(=N)N)NC2=O)NC(=O)[C@@H](Cc2ccccc2)NC(=O)[C@H](CC(=O)O)NC(=O)CNC1=O [indium-111 labelled]
tissue uptake (female athymic nu/nu mice, bone; intravenous, 1 h): 0.93 ± 0.13 %ID/g

[64Cu+2].c1ccc(CNCc2ccc(CN3CCCN4CCNCCCN(CC4)CC3)cc2)nc1
tissue uptake (CXCR4; NOD/SCID mouse, U87 and U87-stb-CXCR4 xenografts, lungs; iv, 90 min, no blocking dose, ex vivo): 6.16 ± 0.34 %ID/g

N=C(N)NCCC[C@@H]1NC(=O)[C@H](CCCCNC(=S)Nc2ccc(CC3CN(CC(=O)O)CCN(CC(=O)O)CCN(CC(=O)O)CCN3CC(=O)O)cc2)NC(=O)[C@@H](Cc2ccc(O)cc2)NC(=O)[C@H](CC(=O)O)NC(=O)CNC1=O (stereo partly drawn) [actinium-225 labelled]
tumour to muscle ratio (U-87 MG tumour-bearing mice; 4 h): 5.7

CCCC[C@H](NC(=O)COCCOCCNC(=O)CN1CCN(CC(=O)O)CCN(CC(=O)O)CC1)C(=O)N[C@H]1CC(=O)NCCCC[C@@H](C(N)=O)NC(=O)[C@H](Cc2c[nH]c3ccccc23)NC(=O)[C@H](CCCNC(=N)N)NC(=O)[C@@H](Cc2ccccc2)NC(=O)[C@H](Cc2c[nH]cn2)NC1=O [copper-64 labelled]
tissue uptake (C57 mice, lung; intravenous, 0.37 MBq, 24 h): 0.69 ± 0.17 %ID/g

N=C(N)NCCC[C@@H]1NC(=O)[C@H](CCCCNC(=O)CNC(=O)CNC(=O)CNC(=O)CC[C@H](NC(=O)CNC(=O)CNC(=O)CNC(=O)CC[C@H](NC(=O)CN2CCN(CC(=O)O)CCN(CC(=O)O)CCN(CC(=O)O)CC2)C(=O)NCC(=O)NCC(=O)NCC(=O)N[C@@H](CCC(=O)NCC(=O)NCC(=O)NCC(=O)NCCCC[C@@H]2NC(=O)[C@@H](Cc3ccccc3)NC(=O)[C@H](CC(=O)O)NC(=O)CNC(=O)[C@H](CCCNC(=N)N)NC2=O)C(=O)NCC(=O)NCC(=O)NCC(=O)NCCCC[C@@H]2NC(=O)[C@@H](Cc3ccccc3)NC(=O)[C@H](CC(=O)O)NC(=O)CNC(=O)[C@H](CCCNC(=N)N)NC2=O)C(=O)NCC(=O)NCC(=O)NCC(=O)NCCCC[C@@H]2NC(=O)[C@@H](Cc3ccccc3)NC(=O)[C@H](CC(=O)O)NC(=O)CNC(=O)[C@H](CCCNC(=N)N)NC2=O)NC(=O)[C@@H](Cc2ccccc2)NC(=O)[C@H](CC(=O)O)NC(=O)CNC1=O [indium-111 labelled]
tissue uptake (female athymic nu/nu mice, bone; intravenous, 4 h): 1.99 ± 0.15 %ID/g

CCCC[C@H](NC(=O)CCCCCCCNC(=O)CN1CCN(CC(=O)O)CCN(CC(=O)O)CC1)C(=O)N[C@H]1CC(=O)NCCCC[C@@H](C(N)=O)NC(=O)[C@H](Cc2c[nH]c3ccccc23)NC(=O)[C@H](CCCNC(=N)N)NC(=O)[C@@H](Cc2ccccc2)NC(=O)[C@H](Cc2c[nH]cn2)NC1=O [copper-64 labelled]
tissue uptake (C57 mice, muscle; intravenous, 0.37 MBq, 0.5 h): 0.7 ± 0.18 %ID/g

CC(C)C[C@H](NC(=O)[C@H](Cc1ccc(O)cc1)NC(=O)[C@@H](CCCNC(=N)N)NC(=O)[C@@H](CO)NC(=O)[C@H](Cc1ccccc1)NC(=O)[C@H](CC1CCCCC1)NC(=O)[C@H](CC(=O)O)NC(=O)CN1CCCN2CCN(CCCN(CC(=O)O)CC2)CC1)C(=O)N[C@@H](Cc1c[nH]c2ccccc12)C(=O)N[C@@H](CO)C(=O)O [copper-64 labelled]
tissue uptake (female NMRI nude mice, tumor; 1 h p.i.): 3.6 ± 1 %ID/g

CCCC[C@H](NC(=O)CNC(=O)CNC(=O)CN1CCN(CC(=O)O)CCN(CC(=O)O)CCN(CC(=O)O)CC1)C(=O)N[C@H]1CC(=O)NCCCC[C@@H](C(N)=O)NC(=O)[C@H](Cc2c[nH]c3ccccc23)NC(=O)[C@H](CCCNC(=N)N)NC(=O)[C@@H](Cc2ccccc2)NC(=O)[C@H](Cc2c[nH]cn2)NC1=O [lutetium-177 labelled]
tissue uptake (C57 mouse, female, bone; intravenous, 0.037 MBq, 0.5 h): 0.95 ± 0.33 %ID/g

COc1ccc2cc(NC(=O)c3cc(-c4cccnc4)nc4ccccc34)ccc2c1
kcat/Km (Cytochrome P450 3A4 (CYP3A4, Homo sapiens, UniProt P08684); substrate, measured: metabolite M1; baculosomes): 12800 M⁻¹ s⁻¹

N=C(N)NCCC[C@@H]1NC(=O)[C@H](CCCCNC(=O)CNC(=O)CNC(=O)CNC(=O)CC[C@H](NC(=O)CNC(=O)CNC(=O)CNC(=O)CN2CCN(CC(=O)O)CCN(CC(=O)O)CCN(CC(=O)O)CC2)C(=O)NCC(=O)NCC(=O)NCC(=O)NCCCC[C@@H]2NC(=O)[C@@H](Cc3ccccc3)NC(=O)[C@H](CC(=O)O)NC(=O)CNC(=O)[C@H](CCCNC(=N)N)NC2=O)NC(=O)[C@@H](Cc2ccccc2)NC(=O)[C@H](CC(=O)O)NC(=O)CNC1=O [indium-111 labelled]
tissue uptake (female athymic nu/nu mice, intestine; intravenous, 0.5 h): 4.83 ± 1.15 %ID/g

Cc1cc(O)cc(C)c1C[C@H](NC(=O)[C@@H]1CCCN1C(=O)[C@H](CCCNC(=N)N)NC(=O)[C@H](CCCNC(=N)N)N(C)C(=O)[C@@H]1CCCN1C(=O)[C@@H](CC(C)C)NC(=O)[C@@H](CC(C)C)NC(=O)[C@@H](CC(C)C)NC(=O)[C@@H](CC(C)C)NC(=O)[C@H](CCCCN)NC(=O)CN1CCN(CC(=O)O)CCN(CC(=O)O)CCN(CC(=O)O)CC1)C(=O)N[C@H](C(=O)N[C@@H](CC(C)C)C(=O)O)C(C)(C)C [lutetium-177 labelled]
tissue uptake (CF-1 mouse, blood; iv, 370 kBq, 4 h): 0.04 ± 0.02 %ID/g

CC(=O)[O-].O.O.O.O.[Ni+2].[O-]c1ccc(Br)cc1C=NCCN1CCOCC1
inhibition zone diameter (Shigella flexneri; 20 µL of 100 µM per disc): 27 mm

For quick reference, copied from above:
N=C(N)NCCC[C@@H]1NC(=O)[C@H](CCCCNC(=O)CNC(=O)CNC(=O)CNC(=O)CC[C@H](NC(=O)CNC(=O)CNC(=O)CNC(=O)CN2CCN(CC(=O)O)CCN(CC(=O)O)CCN(CC(=O)O)CC2)C(=O)NCC(=O)NCC(=O)NCC(=O)NCCCC[C@@H]2NC(=O)[C@@H](Cc3ccccc3)NC(=O)[C@H](CC(=O)O)NC(=O)CNC(=O)[C@H](CCCNC(=N)N)NC2=O)NC(=O)[C@@H](Cc2ccccc2)NC(=O)[C@H](CC(=O)O)NC(=O)CNC1=O [indium-111 labelled]
tissue uptake (female athymic nu/nu mice, intestine; intravenous, 0.5 h): 4.83 ± 1.15 %ID/g

Cc1cc(O)cc(C)c1C[C@H](NC(=O)[C@@H]1CCCN1C(=O)[C@H](CCCNC(=N)N)NC(=O)[C@H](CCCNC(=N)N)N(C)C(=O)[C@@H]1CCCN1C(=O)[C@@H](CC(C)C)NC(=O)[C@@H](CC(C)C)NC(=O)[C@@H](CC(C)C)NC(=O)[C@@H](CC(C)C)NC(=O)[C@H](CCCCN)NC(=O)CN1CCN(CC(=O)O)CCN(CC(=O)O)CCN(CC(=O)O)CC1)C(=O)N[C@H](C(=O)N[C@@H](CC(C)C)C(=O)O)C(C)(C)C [lutetium-177 labelled]
tissue uptake (CF-1 mouse, blood; iv, 370 kBq, 4 h): 0.04 ± 0.02 %ID/g
